Assay results gathered from unrelated publications.
Compare with care: the assays were run in different laboratories. Several values in a cell are separate wells, animals, samples, runs or records. Numbers after ± are the reported error.

SMILES | test | system | setting | Cmax
CC1(COc2ccc3c(c2)ncn3-c2ccc3cccc(N4CCC(N)CC4)c3n2)COC1 | – | human patients, recurrent/progressive HGG or DIPG, serum | oral, 170 mg/m^2, day 1, median | 634 nM
COc1ccc2nc([S@@+]([O-])Cc3ncc(C)c(OC)c3C)[nH]c2c1 | – | human, dried blood spots | oral, 10 mg omeprazole, with: voriconazole | 193 ng/mL
CC(C)c1nc(N(C)S(C)(=O)=O)nc(-c2ccc(F)cc2)c1/C=C/[C@@H](O)C[C@@H](O)CC(=O)O | – | healthy human subjects, plasma | oral, 10 mg, geometric mean, with: fruquintinib 5 mg | 3.38 ng/mL
N[C@@H]1c2cccnc2[C@H](OC(=O)N2CCC(n3c(=O)[nH]c4ncccc43)CC2)CC[C@H]1c1cccc(F)c1F | – | human, plasma | oral, 75 mg single dose, alone, geometric mean, rifampin DDI study | 880 ng/mL
Cc1cc(Nc2cc3ncccc3c(N[C@@H]3C[C@H]4CC[C@@H](C3)N4CCC#N)n2)n[nH]1 | – | human, plasma | 20 mg, day 14, geometric mean | 0.141 ng/mL
CN(CC#N)C(=O)C[C@H](Nc1nc2ccccc2[nH]1)c1cccc(C(F)(F)F)c1 | – | human | intravenous infusion, 3 mg/kg, 1 mg/mL formulation | 7970 ± 735 ng/mL
CO[C@@H]1[C@H](N(C)C(=O)c2ccccc2)C[C@H]2O[C@]1(C)n1c3ccccc3c3c4c(c5c6ccccc6n2c5c31)C(=O)NC4 | – | human patients, induction therapy, plasma | oral, 50 mg twice daily, day 21, mean | 11000 ng/mL
COc1nnc2ccc(N3CCC(c4ccc(OCCN5CCN(C)C(=O)[C@H]5C)cc4)CC3)nn12 | – | human, plasma | oral, 30 mg once daily, single dose, monotherapy | 245 nM
C=CC(=O)N(C)CCOc1c(N)ncnc1-c1cc(F)cc(NC(=O)c2ccc(C3CC3)cc2F)c1C | – | human, whole blood | oral, 600 mg, single ascending dose, fasted | 511 ng/mL
CC(C)NC(=O)COc1cccc(-c2nc(Nc3ccc4[nH]ncc4c3)c3ccccc3n2)c1 | – | human male, plasma | oral, dose not given, day 12, adjusted geometric mean, with: dabigatran etexilate | 2180 ng/mL
FC(F)(F)c1ccc(CNc2ccc(Cc3c[nH]c4ncc(Cl)cc34)cn2)cn1 | item: total radioactivity | healthy human male, plasma | oral, 400 mg [14C]-labelled | 5590 ng/mL
Cc1cc(Nc2ccc(S(F)(F)(F)(F)F)cc2)n2nc(C(C)(F)F)nc2n1 | LC-MS/MS | human vivax malaria patients, plasma | oral, 400 mg, mean | 7880 ng/mL
C=CC(=O)N1C[C@H](Nc2ncnc3[nH]ccc23)CC[C@@H]1C | – | human, plasma | oral, 50 mg single dose, alone without rifampicin | 272 ng/mL
NC(CO)(CO)CCc1ccc(Sc2cccc(OCc3ccccc3)c2)cc1Cl | – | human male fasted, whole blood | oral, 3 mg, with: cyclosporin 100 mg b.i.d. | 0.88 ng/mL
Cc1ccc(NC(=O)c2ccc(CN3CCN(C)CC3)cc2)cc1Nc1nccc(-c2cncc(-c3oncc3C)c2)n1 | – | healthy human volunteers, plasma | oral, 200 mg/day, multiple ascending dose, steady state | 5950 ± 1120 ng/mL
C[C@H](CCC(=O)O[C@@H]1O[C@H](C(=O)O)[C@@H](O)[C@H](O)[C@H]1O)[C@H]1CC[C@H]2[C@@H]3[C@H](O)C[C@@H]4C[C@H](O)CC[C@]4(C)[C@H]3CC[C@]12C | – | human, plasma | concentration not given, endogenous control diurnal | 32.1 ± 5.2 nM
Cc1nc(-c2ccc(OCC(C)C)c(C#N)c2)sc1C(=O)O | – | human | oral, 20 mg once daily, with: verinurad 0 mg | 537 ng/mL
CCCS(=O)(=O)N[C@H]1C[C@@H](N(C)c2ncnc3[nH]ccc23)C1 | – | human, plasma, total | oral, 200 mg once daily, 4 days, steady state | 1180 ng/mL
Nc1ccn([C@@H]2O[C@H](CO)[C@@H](O)C2(F)F)c(=O)n1 | HPLC-UV | human, plasma | intravenous, 1000 mg/m^2, median, before paricalcitol | 6880 ng/mL
C[C@@H]1[C@H](c2ccccc2)C[C@H](NC(=O)c2cnc3c(c2)C[C@@]2(C3)C(=O)Nc3ncccc32)C(=O)N1CC(F)(F)F | – | human, plasma | 100 mg, scaled from 50 mg assuming linear PK | 400 to 1400 nM

SMILES | test | system | setting | Cmax
Cc1ccc(=O)n(-c2ccccc2)c1 | – | healthy human | oral, 600 mg single, alone | 12200 ng/mL
C[C@H](CCC(=O)O)[C@H]1CC[C@H]2[C@@H]3[C@H](O)C[C@@H]4C[C@H](O)CC[C@]4(C)[C@H]3CC[C@]12C | – | human, plasma | concentration not given, endogenous baseline diurnal | 1220 ± 284 nM
CNC(=O)c1c(C)oc2cc(Oc3ncnc4cc(OC)c(OC)cc34)ccc12 | – | human, normal hepatic function (Child-Pugh), plasma | oral, 5 mg, single dose | 118 ng/mL
CC(C)(Sc1ccncc1-c1ccc(C#N)c2ccccc12)C(=O)O | – | human, plasma | oral, 5 mg once daily, with: febuxostat 0 mg | 17.2 ng/mL
CC#CC(=O)N1CCC[C@H]1c1nc(-c2ccc(C(=O)Nc3ccccn3)cc2)c2c(N)nccn12 | – | human, plasma | oral, 50 mg single dose | 166 ng/mL
Cc1cn(C(=O)c2c(-c3c(Cl)cc(Cl)cc3Cl)noc2C(C)(C)F)c2cccc(/C=C/C(=O)O)c12 | – | human patients | 500 mg bid, cycle 1 day 1 | 16900 ng/mL
C=CC(=O)NC1CCN(c2ncc3ncnc(Nc4ccc(Oc5ccc6c(c5)ncn6C)c(C)c4)c3n2)CC1 | – | human, male, plasma | oral, 30 mg single dose, fasted, geometric mean | 399 nM
Cc1noc(C)c1-c1cc(C(O)(c2ccccn2)c2ccccn2)c2nc(C3CC3)[nH]c2c1 | – | human male patients, fasted, plasma | oral, 3 mg once daily, cycle 1 day 8 | 264 ng/mL
CCOc1cc(CC(=O)N[C@@H](CC(C)C)c2ccccc2N2CCCCC2)ccc1C(=O)O | – | human, plasma | oral, dose not given, single dose alone, geometric mean | 20.6 ng/mL
CC(=O)c1cc(C(=O)N[C@@H](C)Cn2ccc(-c3ccc(C#N)c(Cl)c3)n2)[nH]n1 | – | human, fasted, plasma | oral, 300 mg 14C-darolutamide solution, geometric mean | 11700 ng/mL
C[C@H](Oc1ccc(Br)cc1-c1ccon1)C(=O)O | LC-MS/MS, non-compartmental | human, plasma | 600 mg once daily, day 10, multiple ascending dose, mean | 26200 ng/mL
NC1(C(=O)N[C@@H](CCO)c2ccc(Cl)cc2)CCN(c2nc[nH]c3nccc2-3)CC1 | – | human patients, plasma | dose not given, cohort 160/400, cycle 0, geometric mean | 1200 ng/mL
Cc1ncnc2c1ccn2[C@@H]1C[C@H](Oc2cc(C(F)F)c(F)c3c2CNCC3)[C@@H](O)[C@H]1O | – | human, plasma | 8 mg once daily | 142 ng/mL and 58.2 ng/mL
N#Cc1cc(NC(=O)[C@H]2c3ccccc3C(=O)N(CC(F)(F)F)[C@@H]2c2cccnc2)ccc1F | – | human, plasma | oral, 300 mg, median | 567 ng/mL
Cc1cc(-c2nccc3c2ccn3CC(=O)Nc2ccc(-c3cnccn3)cn2)ccn1 | – | human, plasma | oral, 5 mg once daily, day 16, geometric mean | 56.9 nM
C[C@@H](Oc1ccc(S(C)(=O)=O)cc1C(=O)N1C[C@@H]2C[C@]2(c2cc(C(F)(F)F)on2)C1)C(F)(F)F | – | healthy human volunteers, fasted, plasma | oral, 10 mg single tablet, adjusted geometric mean | 120 nM
Cn1ncnc1[C@H]1c2n[nH]c(=O)c3cc(F)cc(c23)N[C@@H]1c1ccc(F)cc1 | – | human patients, plasma | oral, 600 µg/m2 twice daily, day 1, monotherapy, dose level DL6, median | 8.1 ng/mL
COC[C@@H](c1ccc(C(F)(F)F)cc1)N1CCN(C2(C)CCN(C(=O)c3c(C)ncnc3C)CC2)C[C@@H]1C | – | human | oral, 15 mg once daily, steady state, population PK, with: ritonavir | 95 ng/mL
NCCCS(=O)(=O)O | – | human, plasma | oral, 340 mg once daily, day 14, capsule, fasted, dosed days 8-14 | 1480 ng/mL
CNC(=O)c1cc(Oc2ccc(NC(=O)Nc3ccc(Cl)c(C(F)(F)F)c3)cc2)ccn1 | – | human, plasma | oral, 200 mg daily, median, dose level -4, with: carboplatin AUC 2, gemcitabine 500 mg/m2 | 2800 ng/mL

SMILES | test | system | setting | Cmax
CC(C)n1c(Nc2cccnc2)nc2cnc(Nc3ccc(N4CCN(C)CC4)cc3)nc21 | – | human, male, plasma | oral, 100 mg, day 1, single dose alone | 44 ng/mL
Cc1cc(C)c(CNC(=O)c2cc(Cl)c3c(c2C)O[C@@](C)([C@H]2CC[C@H](N(C)C)CC2)O3)c(=O)[nH]1 | mean | healthy male humans, plasma | oral, 25 mg, day 1, alone, itraconazole group | 115 ng/mL
COc1ccc(F)cc1C(=O)NCc1ccc(-c2nn([C@@H](C)C(F)(F)F)c(N)c2C(N)=O)cc1 | – | human, plasma | oral, 200 mg once daily, with: oral repaglinide | 7220 ng/mL
N#Cc1cccc(-c2ccc3ncc(-c4cc(F)cc(F)c4)c(N4CCC(N)CC4)c3c2)c1O | – | male human, plasma | oral, 20 mg single, geometric mean | 156 ng/mL
NC(=O)N1c2ccccc2C=Cc2ccccc21 | – | healthy human subjects, plasma | oral, dose not given, day 21, twice daily, with glecaprevir and pibrentasvir | 7620 ng/mL
N#CCC1CCN(c2nc(Nc3ccc(N4CCC(O)CC4)cc3)c3c(=O)[nH]ncc3n2)CC1 | – | human, plasma | oral, 40 mg once daily, day 15 | 171 ng/mL
N#Cc1ccc2c(c1)[C@H]1CCCN(C(=O)c3ccc4[nH]cnc4c3)[C@H]1C2 | – | human, plasma | oral, 80 mg once daily, after first dose | 5810 nM
CC(C)n1nc(-c2ccc3oc(N)nc3c2)c2c(N)ncnc21 | – | human patients, plasma | oral, 3 mg once daily, cycle 1 day 1, dose expansion | 42.8 ng/mL
COC(=O)N[C@@H](C)CNc1nccc(-c2cn(C(C)C)nc2-c2cc(Cl)cc(NS(C)(=O)=O)c2F)n1 | – | human patients, plasma | oral, 450 mg twice daily, day 1, single dose, median, with: binimetinib 45 mg once daily | 6030 ng/mL
Cn1nc2c(=O)n(C3CC3)cnc2c1[C@](O)(c1cnc(C(F)(F)F)c(Cl)c1)C(F)(F)F | – | humanized SCID mice, blood | 30 mg/kg once daily, 6 days, infected | 14500 nM
C#C[C@]1(CO)O[C@@H](n2cnc3c(N)nc(F)nc32)C[C@@H]1O | – | human, plasma | oral, 200 mg, single dose, geometric mean | 6170 nM
O=C(O)CCCCCCCCCCCCCCCCC(=O)O | – | human, plasma | concentration not given, endogenous control diurnal | 113 ± 13 nM
COc1cc2ncnc(Nc3ccc(F)c(Cl)c3)c2cc1NC(=O)/C=C/CN1CCCCC1 | item: total drug | human, severe hepatic impairment, plasma | single dose, NCI classification | 12.5 ng/mL
CCS(=O)(=O)Nc1ccc(Oc2ccc(F)cc2F)c(-c2cn(C)c(=O)c3[nH]ccc23)c1 | – | human, plasma | oral, 2.5 mg, cycle 1 day 8, geometric mean | 26.8 ng/mL
CCOc1c([C@H](C)n2nc(C)c3c(N)ncnc32)cc(Cl)c(F)c1[C@@H]1CNC(=O)C1 | – | human Hodgkin lymphoma patients | oral, 20 mg, day 15 | 1930 nM
Cn1cc(-c2ccc(S(=O)(=O)[C@@H]3C[C@@H](C(=O)NC4(C#N)CC4)N(C(=O)C4(C(F)(F)F)CC4)C3)c(C(F)(F)F)c2)cn1 | noncompartmental | human, both sexes, plasma | oral, 100 mg once daily, day 1, with food, single dose | 865 ng/mL
CCn1cc(C(=O)N2CCOCC2)c(=O)c2cc(NC3Cc4ccccc4C3)cnc21 | – | human, fasted, plasma | oral, 900 mg single dose, tablet, arithmetic mean | 5190 ng/mL
Cn1cncc1[C@@](N)(c1ccc(Cl)cc1)c1ccc2c(c1)c(-c1cccc(Cl)c1)cc(=O)n2C | – | human, plasma | oral, dose not given, with: omeprazole | 90.5 ng/mL
CN(C(=O)C(C)(C)c1cc(C(F)(F)F)cc(C(F)(F)F)c1)c1cnc(N2C[C@H]3COCCN3C[C@H]2CO)cc1-c1ccc(F)cc1[14CH3] | item: total radioactivity | human, whole blood | oral, 120 mg | 527 ng equiv/mL
CCN(CC)CCNC(=O)c1c(C)[nH]c(/C=C2\C(=O)Nc3ccc(F)cc32)c1C | – | human, normal hepatic function (Child-Pugh), plasma | single dose, geometric mean, total drug | 21.9 ng/mL
